Experimental data of several laboratories.
Each line is one published result; not all experiments were run side by side. “And” joins repeats or separate records; there may be more than shown.

SMILES = C#Cc1c(F)ccc2cc(O)cc(-c3ncc4c(N5CC6CCC(C5)N6C(=O)OC(C)OC(=O)CC5CCOCC5)nc(OC[C@@]56CCCN5C[C@H](F)C6)nc4c3F)c12 (stereo partly shown); test system = simulated gastric fluid; setting = 1 µM, 30 min, 37 °C; measurement = remaining prodrug; result = 103%
SMILES = C=CCN1CCC23c4c5ccc(OC(=O)c6ccc(N)cc6)c4OC2C(=O)CCC3(O)C1C5 (stereo not shown); test system = human plasma; setting = 24 h; measurement = remaining compound; result = 62.3% and 62.5% and 62.7%
SMILES = CSCC[C@H](NC(=O)[C@H](CCCNC(=N)N)NC(=O)[C@H](CCCNC(=N)N)NC(=O)[C@H](CCCCN)NC(=O)[C@H](C)NC(=O)[C@H](CCCNC(=N)N)NC(=O)CNC(=O)[C@@H](N)[C@@H](C)O)C(=O)N[C@@H](CCC(N)=O)C(=O)N[C@@H](Cc1ccc(O)cc1)C(=O)N[C@@H](CC(N)=O)C(=O)N[C@@H](CCCNC(=N)N)C(=O)N[C@@H](CCCNC(=N)N)C(N)=O; test = HPLC peak area; test system = 50% human serum; setting = 100 µM, 2 h, pH 7.4, 37 °C; scale = relative to: 0 h; measurement = remaining peptide; result = 24% and 20.5% and 22.8%
SMILES = CC[C@H](C)[C@H](NC(=O)[C@@H](NC(=O)[C@H](CCCCN)NC(=O)[C@@H](NC(=O)CNC(=O)[C@@H](N)CCCNC(=N)N)[C@@H](C)O)C(C)C)C(=O)N[C@@H](CC(C)C)C(=O)N[C@@H](Cc1c[nH]cn1)C(=O)N[C@@H](CC(C)C)C(N)=O; test = LC-MS; test system = pronase digest; setting = 200 µM, 1 h, pH 7.5, 37 °C, added: pronase 2.5 µg/mL; measurement = remaining intact peptide; result = 0%
SMILES = C=CCN1CCC23c4c5ccc(OC(=O)c6ccc(NC(=O)OC(C)(C)C)cc6)c4OC2C(=O)CCC3(O)C1C5 (stereo not shown); test system = rat plasma; setting = 0.5 h, added: digitonin 100 µM; measurement = remaining compound; result = 0.851% and 0.652% and 0.665%
SMILES = CCCCCCCCCCCC(=O)C(C)C(=O)N1CCC[C@H]1C(=O)NC(C)(C)C(=O)NC(C)(C)C(=O)NC(C)(C)C(=O)N[C@](C)(CC)C(=O)NCCC(=O)N[C@@H](C)C(=O)N[C@](C)(CC)C(=O)N[C@@H](C)C(=O)N[C@@H](CC(C)C)C(=O)N[C@](C)(CC)C(=O)NCCC(=O)N[C@@H](C)C(=O)N[C@](C)(CC)C(=O)NCCC(=O)N[C@@H](C)C(=O)NC(C)(C)C(=O)NC(C)(C)C(=O)NC(C)(C)C(=O)N[C@@H](C)C(=O)N[C@@H](CC(=O)O)C(=O)O (stereo partly shown); test = LC-MS; test system = buffer with trypsin; setting = 40 µM, 720 min, pH 7.5, 37 °C; scale = relative to: 0 h; measurement = remaining intact peptide; result = 60.1% and 54.1%
SMILES = C=CCN1CCC23c4c5ccc(OC(=O)c6ccccc6)c4OC2C(=O)CCC3(O)C1C5 (stereo not shown); test system = rat plasma; setting = 0 h, added: loperamide 100 µM; measurement = remaining compound; result = 100% and 104% and 95.7%
SMILES = C#Cc1c(F)ccc2cc(O)cc(-c3ncc4c(N5CC6CCC(C5)N6C(=O)OC(C)OC(=O)c5cccc6ccccc56)nc(OC[C@@]56CCCN5C[C@H](F)C6)nc4c3F)c12 (stereo partly shown); test system = simulated gastric fluid; setting = 1 µM, 30 min, 37 °C; measurement = remaining prodrug; result = 93%
SMILES = Cc1nnc(-c2ccc(CC(=O)NCCCC[C@H](NC(=O)c3ccc(OCc4ccc(B(O)O)cc4)c(-c4nc5ccccc5c(=O)[nH]4)c3)C(=O)NCC(=O)NCC(=O)NCC(=O)N[C@@H](Cc3ccccc3)C(=O)N[C@@H](Cc3ccccc3)C(=O)O)cc2)nn1; test = UPLC-MS/MS; test system = human serum; setting = 100 µM, 2 h, 37 °C; measurement = remaining compound; result = 85% and 82.7%
SMILES = CC(C)[C@@H]1NC(=O)CNC(=O)[C@H](CC(N)=O)NC(=O)[C@H](CCCNC(=N)N)NC(=O)[C@H](Cc2ccc(O)cc2)NC(=O)[C@H](C(C)C)NC(=O)[C@@H](NC(=O)[C@@H](NC(=O)[C@H](CC(N)=O)NC(=O)[C@H](Cc2c[nH]c3ccccc23)NC(=O)[C@H](C)NC(=O)[C@H](Cc2ccccc2)NC(=O)CNC(=O)[C@H](CCCCN)NC(=O)[C@H](Cc2ccccc2)NC(=O)[C@H](Cc2ccccc2)NC(=O)[C@H](CCCCN)NC(=O)OCC2c3ccccc3-c3ccccc32)C(C)C)CSSC[C@@H](C(=O)N[C@@H](Cc2c[nH]cn2)C(=O)N[C@@H](CCCNC(=N)N)C(=O)N[C@@H](CCCNC(=N)N)C(=O)N[C@@H](C)C(=O)N[C@@H](CC(N)=O)C(N)=O)NC(=O)[C@H](C(C)C)NC(=O)[C@H](CCCNC(=N)N)NC1=O; test = HPLC; test system = mouse mammary gland homogenate; setting = 2560 µM, 16.00 h, 37 °C, 50 mg/mL tissue; measurement = remaining peptide; result = 53.2% and 59.3% and 58%

A few entries again:
SMILES = C#Cc1c(F)ccc2cc(O)cc(-c3ncc4c(N5CC6CCC(C5)N6C(=O)OC(C)OC(=O)CC5CCOCC5)nc(OC[C@@]56CCCN5C[C@H](F)C6)nc4c3F)c12 (stereo partly shown); test system = simulated gastric fluid; setting = 1 µM, 30 min, 37 °C; measurement = remaining prodrug; result = 103%
